# Published values pooled from the literature.
# Several values in a cell are separate wells, animals, samples, runs or records. ± gives the spread as reported.
Structure (SMILES),assay,test system,setting,how to read,measurement,result
CC(C)n1c(Nc2cccnc2)nc2cnc(Nc3ccc(N4CCN(C)CC4)cc3)nc21,LC-MS/MS,"human, male, plasma","oral, dose not given, with: itraconazole",relative to: compound alone,Cmax increase,~41%
NC[C@@]1(CC(=O)O)[C@@H]2CC[C@H]3C[C@@H]2[C@@H]1C3,,"human, moderate renal impairment, plasma",dose not given,relative to: normal renal function,Cmax increase,13.8%
C=CC(=O)NC1CCN(c2ncc3ncnc(Nc4ccc(Oc5ccc6c(c5)ncn6C)c(C)c4)c3n2)CC1,,"human, male, plasma","oral, 30 mg, fed",relative to: fasted,Cmax reduction,46%
N#Cc1ccc(C(c2ccc(C#N)cc2)n2cncn2)cc1,,human,150 mg,,Cmax at steady state,132 ng/mL
CC(C)(C(=O)N1CCOc2c(C#N)cncc2C1)C(F)F,,"healthy humans, both sexes, plasma","oral, 40 mg single dose, 2-fold dose increase",relative to: 40 mg over 20 mg,Cmax dose proportionality ratio,2.31
CC(C)c1nc(N(C)S(C)(=O)=O)nc(-c2ccc(F)cc2)c1/C=C/[C@@H](O)C[C@@H](O)CC(=O)O,,healthy human subjects,"oral, 10 mg, with: fruquintinib 5 mg",relative to: fruquintinib alone,Cmax decrease,~16%
CCOc1cc(CC(=O)N[C@@H](CC(C)C)c2ccccc2N2CCCCC2)ccc1C(=O)O,,human,"oral, dose not given, with: omaveloxolone",relative to: substrate alone,Cmax decrease,24%
N[C@@H]1c2cccnc2[C@H](OC(=O)N2CCC(n3c(=O)[nH]c4ncccc43)CC2)CC[C@H]1c1cccc(F)c1F,,"human, plasma","oral, 75 mg single dose, with: rifampin",relative to: compound alone,Cmax decrease,64%
C[C@H]1O[C@@H](O[C@H]2[C@@H](O)C[C@H](O[C@H]3[C@@H](O)C[C@H](O[C@H]4CC[C@@]5(C)[C@H](CC[C@@H]6[C@@H]5C[C@@H](O)[C@]5(C)[C@@H](C7=CC(=O)OC7)CC[C@]65O)C4)O[C@@H]3C)O[C@@H]2C)C[C@H](O)[C@@H]1O,,human,"oral, dose not given, with: omaveloxolone",relative to: substrate alone,Cmax decrease,15%
O=C(c1cccnc1-c1ccncc1)N1CCC(O)(Cc2ccccc2)CC1,,"human, mild hepatic impairment, plasma","oral, 300 mg",,Cmax at steady state,2020 ng/mL
COC(=O)N[C@@H](C)CNc1nccc(-c2cn(C(C)C)nc2-c2cc(Cl)cc(NS(C)(=O)=O)c2F)n1,,"human, plasma","oral, 50 mg, single dose, geometric mean, with: posaconazole",relative to: compound alone,Cmax increase,68.4% and ~68%
Cl.[2H]C([2H])([2H])CC(=O)c1cnc(NC(=O)C2CC2)cc1Nc1cccc(-c2ncn(C([2H])([2H])[2H])n2)c1OC,,"human, plasma","oral, 25 mg, fed, single dose, liquid formulation",relative to: fasted,Cmax reduction,~50%
Cc1cc(Nc2ncc(Cl)c(Nc3ccccc3S(=O)(=O)C(C)C)n2)c(OC(C)C)cc1C1CCNCC1,,"human, plasma","oral, 450 to 600 mg, cycle 2 day 1",,Cmax increase,66%
C[C@@H](Oc1ccc(S(C)(=O)=O)cc1C(=O)N1C[C@@H]2C[C@]2(c2cc(C(F)(F)F)on2)C1)C(F)(F)F,,healthy human volunteers,"oral, 10 mg single dose, with: Meal, high-fat, ~1000 kcal",relative to: fasted state,Cmax increase,18%
N#Cc1ccc2c(c1)[C@H]1CCCN(C(=O)c3ccc4[nH]cnc4c3)[C@H]1C2,,"human, plasma","oral, 240 mg once daily",,Cmax at steady state,14.7 µM
CO[C@]1(C(=O)N[C@@H](C)c2ccc(-n3cc(F)cn3)nc2)CC[C@H](c2nc(C)cc(Nc3cc(C)[nH]n3)n2)CC1,,"human, plasma","oral, 200 mg single dose, with: high-fat meal",relative to: fasted,Cmax increase,104%
Cc1cc(Nc2ncnc3ccc(NC4=NC(C)(CO)CO4)cc23)ccc1Oc1ccn2ncnc2c1 (centres unmarked),,"human, plasma","tucatinib, day 10, with: rifampin once daily",,Cmax (arithmetic mean),105 ng/mL
CC(C)(C#N)c1cc(Cn2cncn2)cc(C(C)(C)C#N)c1,,human,150 mg,,Cmax at steady state,51.6 ng/mL
O=C(c1cc(Cc2n[nH]c(=O)c3ccccc23)ccc1F)N1CCN(C(=O)C2CC2)CC1,,human,"oral, dose not given, with: carboplatin",,Cmax change,~20%
COc1ccc2nc([S@@+]([O-])Cc3ncc(CO)c(OC)c3C)[nH]c2c1,,human,control session,relative to: (R)-OH-omeprazole over compound,Cmax ratio,9.8 fold
C=CC(=O)N1CCC[C@@H](n2c(=O)n(-c3ccc(Oc4ccccc4)cc3)c3c(N)nccc32)C1,,human,"oral, 300 mg",relative to: fed over fasted,Cmax fed/fasted ratio,0.71
CC(C)=CCC/C(C)=C/CC/C(C)=C/CC[C@@](C)(O)CCC1=C(C)C(=O)C(C)=C(C)C1=O,,"healthy human, plasma","oral, 400 mg, single dose, alone",,Cmax geometric LS mean,992 ng/mL
N[C@@H](CC(=O)N1CCn2c(nnc2C(F)(F)F)C1)Cc1cc(F)c(F)cc1F,,"human, female, plasma","oral, 100 mg single dose",,Cmax divided by body mass index,23.2 ± 7.1 ng/mL
COc1cc(C(=O)NC2CCN(C)CC2)c(F)cc1Nc1ncc(C(F)(F)F)c(Oc2cccc3c2C(=O)N(C)C3)n1,,"human patients, plasma","oral, 200 mg once daily, repeated, cycle 1 day 28, geometric mean",,"Cmax at steady state, dose-normalised",12.9
N#CCNC(=O)c1ccc(-c2ccnc(Nc3ccc(N4CCOCC4)cc3)n2)cc1,,"healthy human volunteers, plasma","dose not given, with: multiple-dose rifampin",relative to: compound alone,Cmax change,no effect
COC(=O)N[C@@H](C)CNc1nccc(-c2cn(C(C)C)nc2-c2cc(Cl)cc(NS(C)(=O)=O)c2F)n1,,"humans, plasma","oral, dose not given, day 14, steady state, with: binimetinib",,Cmax median,2950 ng/mL
COc1c(C)c2c(c(O[C@@H]3O[C@H](C(=O)O)[C@@H](O)[C@H](O)[C@H]3O)c1C/C=C(\C)CCC(=O)O)C(=O)OC2,,healthy humans,"oral, dose not given, with: isavuconazole co-administration",relative to: with isavuconazole over MMF alone,Cmax geometric mean ratio,68%
CC(C)(C)OC[C@@H]1C(=O)NCCN1C(=O)C[C@H](N)Cc1cc(F)c(F)cc1F,,"healthy humans, plasma","oral, 5 mg once daily, 7 days, alone",,Cmax at steady state,5.61 ± 0.7 ng/mL
COC(=O)N[C@H](C(=O)N1CCC[C@H]1c1ncc(-c2cc(F)c3c(c2)O[C@@H](c2cnc(C4CC4)s2)n2c-3cc3cc(-c4cnc([C@@H]5CCCN5C(=O)[C@@H](NC(=O)OC)C(C)C)[nH]4)ccc32)[nH]1)C(C)C,,healthy adult humans,"oral, dose not given",relative to: moderate-fat meal over fasted,Cmax increase,53%
O=C(O)C[C@H](O)C[C@H](O)/C=C/c1c(C2CC2)nc2ccccc2c1-c1ccc(F)cc1,,"OATP1B1/1B3 humanised mice, plasma","oral, dose not given, with: silymarin 500 mg/kg",relative to: vehicle,Cmax increase,2.66 fold
CC1(C)CC[C@]2(NC(=O)C(C)(F)F)CC[C@]3(C)[C@H](C(=O)C=C4[C@@]5(C)C=C(C#N)C(=O)C(C)(C)[C@@H]5CC[C@]43C)[C@@H]2C1,,"human, plasma","oral, dose not given, with: itraconazole",relative to: without itraconazole,Cmax fold increase,~3 fold
COc1cc(C(=O)NC2CCN(C)CC2)c(F)cc1Nc1ncc(C(F)(F)F)c(Oc2cccc3c2C(=O)N(C)C3)n1,,"human, Japanese, plasma","oral, 200 mg once daily multiple dose, geometric mean",,Cmax steady state,2.96 µM

# A few entries again:
Structure (SMILES),assay,test system,setting,how to read,measurement,result
N#CCNC(=O)c1ccc(-c2ccnc(Nc3ccc(N4CCOCC4)cc3)n2)cc1,,"healthy human volunteers, plasma","dose not given, with: multiple-dose rifampin",relative to: compound alone,Cmax change,no effect
C[C@@H](Oc1ccc(S(C)(=O)=O)cc1C(=O)N1C[C@@H]2C[C@]2(c2cc(C(F)(F)F)on2)C1)C(F)(F)F,,healthy human volunteers,"oral, 10 mg single dose, with: Meal, high-fat, ~1000 kcal",relative to: fasted state,Cmax increase,18%
COC(=O)N[C@@H](C)CNc1nccc(-c2cn(C(C)C)nc2-c2cc(Cl)cc(NS(C)(=O)=O)c2F)n1,,"humans, plasma","oral, dose not given, day 14, steady state, with: binimetinib",,Cmax median,2950 ng/mL
CC1(C)CC[C@]2(NC(=O)C(C)(F)F)CC[C@]3(C)[C@H](C(=O)C=C4[C@@]5(C)C=C(C#N)C(=O)C(C)(C)[C@@H]5CC[C@]43C)[C@@H]2C1,,"human, plasma","oral, dose not given, with: itraconazole",relative to: without itraconazole,Cmax fold increase,~3 fold
COc1ccc2nc([S@@+]([O-])Cc3ncc(CO)c(OC)c3C)[nH]c2c1,,human,control session,relative to: (R)-OH-omeprazole over compound,Cmax ratio,9.8 fold
